Measured values gathered from unrelated publications.
Each numbered part is a random draw from the data of one study; scales do not carry over between parts. Substitutions count along the parent as printed.

Set 1
Target: NFE2, bZIP domain (human)
Method: DHFR protein complementation
Medium: yeast
Setting: single substitutions, most at no-binding floor
Baseline: wild-type JUN-FOS pair
Reading: higher = stronger binding
Parent: JUN, bZIP domain (human); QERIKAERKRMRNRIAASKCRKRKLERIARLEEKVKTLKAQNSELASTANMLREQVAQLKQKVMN; partner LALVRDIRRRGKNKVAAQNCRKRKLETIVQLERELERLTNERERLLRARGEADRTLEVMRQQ
For `L31E`, the binding fitness was -1.37 natural log.
For `A57G`, the binding fitness was -1.33 natural log.
`L59W` has a binding fitness of -1.46 natural log.
For `A40E`, the binding fitness was -1.49 natural log.
The binding fitness of `K34N` is reported as -1.5 natural log.
`Q58R` has a binding fitness of -0.972 natural log.
With `E44P` the binding fitness was -1.49 natural log.
`M51L` has a binding fitness of -1.31 natural log.
With `V35T` the binding fitness was -1.42 natural log.
The binding fitness of `V56Q` is reported as -1.46 natural log.
The binding fitness of `L45W` is reported as -1.42 natural log.
`L45Q` has a binding fitness of -1.54 natural log.
`T48K` has a binding fitness of -1.51 natural log.
`K39E` gave a binding fitness of -1.5 natural log.
The binding fitness of `Q55G` is reported as -1.46 natural log.
With `I28M` the binding fitness was -1.18 natural log.
`E33H` has a binding fitness of -1.5 natural log.
`K34G` has a binding fitness of -1.54 natural log.
`L52C` has a binding fitness of -1.51 natural log.
`K34D` has a binding fitness of -1.28 natural log.
The binding fitness of `E33G` is reported as -1.39 natural log.
`R53T` gave a binding fitness of -1.46 natural log.
With `K34H` the binding fitness was -1.37 natural log.
`S43T` has a binding fitness of -1.3 natural log.
For `L45G`, the binding fitness was -1.48 natural log.

Set 2
Target: CCNE1, cyclin fold, Cln2 fusion (human)
Method: yeast growth competition, sequencing
Medium: yeast
Setting: weak parent motif
Baseline: not given
Reading: higher = stronger binding
Parent: AKAP12 docking peptide (human); GSPLKKLFTSTGL
`K5A` — result for “normalised enrichment score”: -0.254.
`L7A` — result for “normalised enrichment score”: -0.253.
For `L13A`, “normalised enrichment score” read 0.535.
`F8L` — result for “normalised enrichment score”: 0.315.
For `K5R`, “normalised enrichment score” read 0.677.
`G12A`: “normalised enrichment score” -0.145.
Under “normalised enrichment score”, `S10A` is recorded as 0.779.
`K5A L7A` — result for “normalised enrichment score”: 0.139.
Under “normalised enrichment score”, `P3A` is recorded as 1.04.
`K6A` — result for “normalised enrichment score”: 1.

Set 3
Target: RING finger protein unkempt homolog, zinc fingers 1-6, GST-SBP tag (UNK, Homo sapiens, UniProt Q9C0B0, residues 30-357)
Chain of UniProt Q9C0B0 (30-357, looked up): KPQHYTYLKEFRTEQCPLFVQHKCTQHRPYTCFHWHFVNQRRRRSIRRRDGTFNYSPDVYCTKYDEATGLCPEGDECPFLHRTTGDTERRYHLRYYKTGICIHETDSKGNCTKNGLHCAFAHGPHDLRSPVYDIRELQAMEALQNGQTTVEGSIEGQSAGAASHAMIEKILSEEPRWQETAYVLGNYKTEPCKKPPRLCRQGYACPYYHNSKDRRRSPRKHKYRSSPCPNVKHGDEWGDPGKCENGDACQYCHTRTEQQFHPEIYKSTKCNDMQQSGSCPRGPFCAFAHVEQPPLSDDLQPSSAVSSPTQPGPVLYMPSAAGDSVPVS
Method: RNA Bind-n-Seq
Molecule type: RNA
Medium: in vitro
Concentration: not given
Setting: RNA with constant flanks, human and mouse sites, ends assumed
Baseline: input RNA pool
Reading: higher = stronger binding
The bound/input enrichment of `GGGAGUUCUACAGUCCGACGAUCGAAGUCACCUCAAAGCGAGCCCACAUGUUGAUUGACAUGCACUUUCGAAGUCUGCGCACCAAGUUGUCUCUUAUACUGAGAAAUGAAGAAGCCAGUAAACAACUGGAGAGUUCAAGGCAGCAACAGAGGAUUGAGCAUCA` is reported as 0.128 ratio.
With `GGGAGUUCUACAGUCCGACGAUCGAUCCACAGUGGUCUGAGGAGCAACUCAUUGCUGCAAAAUUCUGUUUUGCUGGCCUUGUUAUAGGGCAGACUGAAGUGGACAUCAUGAGUCAUGCCACACAAGCUAUUUUUGAAAUUCUGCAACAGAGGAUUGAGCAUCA` the bound/input enrichment was 0.207 ratio.
`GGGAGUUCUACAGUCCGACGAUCUCUCGCUCUCCUUUUUUUUUUCUUUUUUUCUUUUUCUUUUUUUUUUCUUUUUUUAAAUACUAGCAACUUUCAUCCUUUGGAACUUGUGCUGAAAAAAGAAGAGUCAGCAAAUACUACUGACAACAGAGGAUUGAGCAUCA` gave a bound/input enrichment of 0.915 ratio.
`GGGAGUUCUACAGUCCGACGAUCCUUGAGCCUAACAAGUCCAUCUUCAAGCAAAUGAAAUCUCAUCCACCAUACACCAUGUGCUUUAGAGUGAAAUUCUACCCACAUGAACCCUUGAAGAUUAAAGAAGAGCUCACAAGGUACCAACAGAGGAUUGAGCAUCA` gave a bound/input enrichment of 0.204 ratio.
The bound/input enrichment of `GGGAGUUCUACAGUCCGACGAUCCCAAGCUGCUGUACUUCAAAGGAAACAGAUCUAGCACACUGCUGCACCCCUGCUUCCACACUCCACACUUCACCCCGCUGCUUUUCUCUGACCCGCCCCUGGCCUUGUAAGACUCACGUACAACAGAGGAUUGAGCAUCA` is reported as 0.22 ratio.
`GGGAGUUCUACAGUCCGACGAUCGUCCUUAUUGAUCCUUUUUCUUGGCGUUACCAUUUUUGAAGCAAAGUUAACCUAGCUUUCUAGCUUGAGCUUUCUUUUUGGCCAUCUUUUAAAACUUUUUUUUUUUUUUUUGAUCUAUAACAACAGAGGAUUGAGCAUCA` has a bound/input enrichment of 3.65 ratio.
`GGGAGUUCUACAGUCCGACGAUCUGCACUGAUAUCAUCCACCUGGACACCCAGCGGCUCCAUUACUACAGGGGCAAUUACAUGACCUUCAAGAAGAUGUACCAGCAGAAGCAGAAAGAGCUGCUAAAGCAGUACGAGAAGCAGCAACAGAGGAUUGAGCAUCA` gave a bound/input enrichment of 0.113 ratio.
`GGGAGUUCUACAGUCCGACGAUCGAGAAUUUAAAUUGAUUCUCAGUUCUGUCAUCAUUAGUUUCUUUUACAUUAAUAUGUCCAUAGUUUGCAUGUUCCCUGGACAGCUUUGUCUUAAUUUCCAUGAGUAGAACUGUGACUUCUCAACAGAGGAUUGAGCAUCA` gave a bound/input enrichment of 49.8 ratio.
For `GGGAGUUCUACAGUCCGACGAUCUUUUUUAUUAAAAUUAUUUUUCCUGCCUGUUGUUGGAUUUGGGGAAAUUUUUUGUUUGUUUUUUAUGAUUUGUAUUUGACUGAGAGAAACCCACUGAAGACGUCUGCGUGAGAAUAGAGACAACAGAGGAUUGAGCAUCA`, the bound/input enrichment was 0.58 ratio.
`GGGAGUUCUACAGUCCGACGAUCGCAGAGAUGGAGAAUAUUAAGGCGAUUGCCACAGUCUCUGAGAACACCAAGCAAGAAGCUAUAGAUGAAGUGAAAAGACAGUGGAGAGAAGAAGUUGCUUCACUUCAGGCUGUUAUGAAACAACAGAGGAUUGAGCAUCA` has a bound/input enrichment of 0.188 ratio.
`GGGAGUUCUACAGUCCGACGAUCUCCACGGGAUUUAACAAAUGUUCAAAGACAUAUAUGCAUCAUUACACUCCUAUAACACAAUAGUUUUACUGUCUUAAGAAUCAUGCGUAGCCAGGCAGUGGUGUACACCUUUAAUCCCAGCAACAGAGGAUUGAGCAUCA` gave a bound/input enrichment of 1.13 ratio.

Set 4
Target: RNA binding protein fox-1 homolog 2, RRM domain, GST-SBP tag (RBFOX2, Homo sapiens, UniProt O43251-10, residues 100-194)
Method: RNA Bind-n-Seq
Molecule type: RNA
Medium: in vitro
Concentration: 365 nM
Setting: natural RNA segment, single round, ends assumed
Baseline: no-protein control
Reading: higher = stronger binding
Construct (chain): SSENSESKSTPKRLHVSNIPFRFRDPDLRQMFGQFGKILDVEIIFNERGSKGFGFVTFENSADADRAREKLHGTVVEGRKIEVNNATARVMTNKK
`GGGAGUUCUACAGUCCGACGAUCUACUUAAUAGUCUUUGGAGGUUUGUAAGGUGUUUUUUUGUUUUGUUUUAAUGUAUUUUAUUGAUUAUCUUCCCGGUUAGUCGAUUAUUUUUCCUCCUCCAAUUGUUUUACUGGAAUUCUCGGGUGCCAA` — result for “RBNS enrichment (R)”: 3.38.
Under “RBNS enrichment (R)”, `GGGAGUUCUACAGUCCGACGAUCGAAGAAGCACCGUGCGCAUACAGCCCACCGCAGAAGCAGCAGGUGCAGGGUGCGCGAAUGCGCAAGCGCCGGGCAGAGUCCCGUGCGGCUUCUGCUGUGGGACGUGGGCCUGGAAUUCUCGGGUGCCAA` is recorded as 1.07.
`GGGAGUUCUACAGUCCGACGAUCAGAAUGGUCAUAUUCACUUUGUGGGCUGCCCAUAAUCUUUCUUGGGCAUUCACAACUCUUGAGUUUGGUGUUCAGGCAUCAUUAUUAAAAAGUGGAGUCCUAUGUACCAGUGGAAUUCUCGGGUGCCAA` — result for “RBNS enrichment (R)”: 0.201.
Under “RBNS enrichment (R)”, `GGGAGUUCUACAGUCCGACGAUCGAAAAUGAACCAAAUGUCAUUACUUUUGUCUUAAAGAAAAGUCUAUUUCAAGAAUAUGAACAGCAGUUUUCCUUGUACAUGUCACCUUUUUUCACAUUUUCAUUAAUCAGUGGAAUUCUCGGGUGCCAA` is recorded as 0.335.
Under “RBNS enrichment (R)”, `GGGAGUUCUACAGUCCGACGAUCAAACGCCCUACUUCUAAGCUCGUCCUUAGUAGCCCAGGCUGGUCUAGAACCUCUGGUCUUCCUUUCUCUGUCCCGAGUACUGAAAUUGCAGCAGACACCUUCAUGCCUUGUGGAAUUCUCGGGUGCCAA` is recorded as 0.341.
Under “RBNS enrichment (R)”, `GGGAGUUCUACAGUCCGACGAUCGAGUUCAGAGCUGAGUACUUGUACCUGAGGGAGGGCCCCCAGCCAAUCUGGGCUGGUCCUUCUAUAUUCUUGGUCCCAGUUGGUCAUAACACCAAGGGCUUUGCCCUGCGUGGAAUUCUCGGGUGCCAA` is recorded as 0.179.
Under “RBNS enrichment (R)”, `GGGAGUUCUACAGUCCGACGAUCCAGUCAUUUCUGAAUCUUUCCACAUUAUAUUAUAAAAUAUGGAAAUGUCAGUUUAUCUCCCCUCCUCAGUAUAUCUGAUUUGUAUAAGUAAGUUGAUGAGCUUCUCUCUAUGGAAUUCUCGGGUGCCAA` is recorded as 0.409.
For `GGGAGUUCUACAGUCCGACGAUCAUAAAGUGUAGUGCAUUGAAACAAAUGAACAAAAAAGUAGAUACUUUUACUAUACAAGGGUGCUGGUGCAGAAAAAAAUAUAUAUAUUUUUGGAAAUGUAGCAUUUUAUAUGGAAUUCUCGGGUGCCAA`, “RBNS enrichment (R)” read 0.548.
For `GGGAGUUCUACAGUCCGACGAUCCGGUGGUGGUGGAUAGCAUCACAAGAAACGAGCCUGAAAAUCAGGUCCAGCCGGUCCAAGCACAUGGCCUCCCAUCUGGGAGAGCCCACUGUCCCACUCCCACAUGUCUGUGGAAUUCUCGGGUGCCAA`, “RBNS enrichment (R)” read 0.332.
For `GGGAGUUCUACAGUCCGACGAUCUAAAAUGUCUCUCUCACCCCCUAGCUUCAUGAUGUGACUCUUAAAAAACUAUAAUAGUUAACAACUGUUAGUAAGAUAGACCAAUUCUGAUUAGACUUUAUCAGGGAAUCUGGAAUUCUCGGGUGCCAA`, “RBNS enrichment (R)” read 0.312.
For `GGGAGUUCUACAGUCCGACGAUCAGAGGGUUGGUAUAAAAAUAAUUUUAAAAAAGCCUUCCUACACGUUAGAUUUGCCGUACCAAUCUCUGAAUGCCCCAUAAUUAUUAUUUCCAGUGUUUGGGAUGACCAGGUGGAAUUCUCGGGUGCCAA`, “RBNS enrichment (R)” read 0.402.
`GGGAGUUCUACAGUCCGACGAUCGGCUAAUUAAGAAUGAUAUACUAUGUACACCCAAUAAGCUGUACUAGAAUGAAUAAAUUACUGAUAAGGUUACAAAUAGGUAAAUGUCACACUUCUGUUAAAAUGCAGGAUGGAAUUCUCGGGUGCCAA`: “RBNS enrichment (R)” 1.19.

Some of these lines once more (set 2):
For `L13A`, “normalised enrichment score” read 0.535.
`F8L` — result for “normalised enrichment score”: 0.315.
For `K5R`, “normalised enrichment score” read 0.677.
`G12A`: “normalised enrichment score” -0.145.
